Experimental data pooled from the literature.
Numbered parts are unrelated; each lists some results of a single study. Changes are numbered by the printed parent chain.

Sample 1 — target: CCND1, cyclin fold, Cln2 fusion (human); method: yeast growth competition, sequencing; medium: yeast; setting: weak parent motif; reference: not given; direction: higher = stronger binding; measurement: normalised enrichment score
Starting sequence: ORC1 docking peptide (human); PRARKRLELGNLG; partner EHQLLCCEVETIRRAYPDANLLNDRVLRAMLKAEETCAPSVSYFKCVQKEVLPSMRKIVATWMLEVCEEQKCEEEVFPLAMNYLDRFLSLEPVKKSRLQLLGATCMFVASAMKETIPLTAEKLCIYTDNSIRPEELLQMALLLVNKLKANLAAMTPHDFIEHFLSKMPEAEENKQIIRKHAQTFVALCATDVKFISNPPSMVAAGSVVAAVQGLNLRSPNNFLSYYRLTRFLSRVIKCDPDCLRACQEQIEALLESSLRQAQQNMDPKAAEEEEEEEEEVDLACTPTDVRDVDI
Change = P1T; value = 0.185
Change = A3C; value = 0.248
Change = E8G; value = -0.033
Change = A3V; value = -0.421
Change = L9A; value = 0.306
Change = G13H; value = -0.000362
Change = G10N; value = -0.553
Change = A3L; value = -0.511
Change = R2W; value = 0.563
Change = G10S; value = -0.53
Change = R4W; value = 0.032
Change = G13S; value = 0.401
Change = R2Y; value = -0.353
Change = R6A; value = -0.119
Change = R4C; value = -0.277
Change = N11C; value = 0.209
Change = K5W; value = 0.135
Change = G13E; value = 0.0362
Change = R4P; value = -0.049
Change = R4S; value = -0.235
Change = L12G; value = -0.301
Change = K5A L7A; value = -0.119
Change = N11T; value = 0.196
Change = R2L; value = -0.571
Change = G10W; value = 1.1

Sample 2 — method: competition protein-binding microarray; molecule type: double-stranded DNA, one strand shown; medium: in vitro; concentration: 2 µM; with: Cbf1 competitor, 0.05 µM; direction: higher = stronger binding; measurement: fluorescence intensity
Target: Phosphate system positive regulatory protein PHO4, full length, GST-tagged (PHO4, Saccharomyces cerevisiae, UniProt P07270, residues 1-312)
Setting: whole 60-bp probe, lowest competitor level
Residues (chain): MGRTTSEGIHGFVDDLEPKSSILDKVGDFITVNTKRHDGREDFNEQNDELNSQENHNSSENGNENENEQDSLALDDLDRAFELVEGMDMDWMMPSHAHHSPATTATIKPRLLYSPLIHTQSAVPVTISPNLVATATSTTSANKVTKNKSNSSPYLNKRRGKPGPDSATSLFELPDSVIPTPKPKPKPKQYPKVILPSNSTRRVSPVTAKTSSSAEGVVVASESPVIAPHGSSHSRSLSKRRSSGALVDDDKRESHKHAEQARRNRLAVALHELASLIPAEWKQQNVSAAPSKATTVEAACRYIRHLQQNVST
Sequence = AAAGCGGTAATTTGTCACGCAACTTCACATATCTATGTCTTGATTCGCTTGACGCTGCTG; value = 5400 a.u.
Sequence = CTTTCCCGATCTTGACGTGTGGGTGTAGCACATTTGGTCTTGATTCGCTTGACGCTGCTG; value = 7030 a.u.
Sequence = CGGGGTTAAGTTTGGTGAGTGGGTGGCTTGCAGCAGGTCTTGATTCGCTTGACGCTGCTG; value = 4970 a.u.
Sequence = CGTCCTAGTGATTGCTGTGTGGGTGCCATGAGGAAGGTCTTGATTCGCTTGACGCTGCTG; value = 8160 a.u.
Sequence = TGCGCAACAACTTGTCACCGGACTTTATGTCTAGAAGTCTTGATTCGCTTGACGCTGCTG; value = 2990 a.u.
Sequence = AGTTGCCACAGGAGTTGCGTGACGGGTTGATAAAGGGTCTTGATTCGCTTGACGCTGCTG; value = 6100 a.u.
Sequence = CAAAAGCTGGTGTCCCACGTCAAGCCATCAACTTGGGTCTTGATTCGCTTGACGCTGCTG; value = 4470 a.u.
Sequence = GAAACGTCGGGTAGTTTCGTGCCGACTTAAGTGCCTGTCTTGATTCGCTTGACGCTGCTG; value = 4620 a.u.
Sequence = ACATTGGCATTGGCACTCATGACAATCATTTTGGAAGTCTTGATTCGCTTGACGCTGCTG; value = 5140 a.u.
Sequence = ATTGCTTAGCACCGTCACGTCTTTCGTTGGCTGTCAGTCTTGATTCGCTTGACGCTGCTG; value = 5400 a.u.
Sequence = AGAGACAATTGTTGCCTCGTGGCCGGGCTATTTACAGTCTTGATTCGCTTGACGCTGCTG; value = 11900 a.u.
Sequence = AAAAAAATTAGGGGACGCGTGGGTAGGGCCGGCTTTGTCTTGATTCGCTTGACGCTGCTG; value = 10100 a.u.
Sequence = ACTAGTAAGGGTAGTGGTGTGACGCTGACCCGATCGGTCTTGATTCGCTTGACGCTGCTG; value = 4860 a.u.
Sequence = TAGGTGTTAAGAAAGCACGTGCCGATAGGGGTTTAGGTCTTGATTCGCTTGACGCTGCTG; value = 18200 a.u.
Sequence = CAAAGTGAACCTGGACACGTTCTTGCCAGTGCTTTCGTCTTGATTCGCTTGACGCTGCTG; value = 12800 a.u.
Sequence = AAAGCGGTAATTTGTCACGAAACTTCACATATCTATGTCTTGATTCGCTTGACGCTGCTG; value = 3480 a.u.

Sample 3 — method: RNA Bind-n-Seq; molecule type: RNA; medium: in vitro; concentration: 100 nM; reference: input RNA pool; direction: higher = stronger binding; measurement: bound/input enrichment
Target: RING finger protein unkempt homolog, zinc fingers 1-6, SBP tag (UNK, Homo sapiens, UniProt Q9C0B0, residues 30-357)
Sequence of UniProt Q9C0B0 (30-357, looked up): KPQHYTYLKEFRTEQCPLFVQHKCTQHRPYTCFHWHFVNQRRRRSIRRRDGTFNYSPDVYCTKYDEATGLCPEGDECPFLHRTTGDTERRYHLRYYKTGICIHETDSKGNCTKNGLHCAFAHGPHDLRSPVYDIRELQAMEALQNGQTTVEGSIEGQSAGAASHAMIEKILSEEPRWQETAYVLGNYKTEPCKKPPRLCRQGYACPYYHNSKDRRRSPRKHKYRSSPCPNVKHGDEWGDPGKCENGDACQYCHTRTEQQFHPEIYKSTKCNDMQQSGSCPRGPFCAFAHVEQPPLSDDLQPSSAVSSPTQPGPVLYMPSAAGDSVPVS
Setting: RNA with constant flanks, vertebrate orthologous sites, ends assumed
Sequence = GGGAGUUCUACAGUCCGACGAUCGCACUGCUUGUGCAGAUUCCACAACACUGAAUGCAAAGUAGCAAUUUUCAUAGUCACAGUAAAGUAGUAUUAGGGUAACAUGCCAUGGUUUUACUCAUGUGCAGAUUGACAAUGUACAAUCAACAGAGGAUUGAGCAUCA; value = 1.54 ratio
Sequence = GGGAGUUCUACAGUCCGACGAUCAGCUAGUUCUUAAGAACCAACGUUUGUAAAAGAUGUAGGCAAAAAGUUUACAGCCUAAUCUAGUUUAUGAAAACAACUUGUGCUAGAAUACUUUUCUUAAAAAAGUAUUUUUGAAUACCACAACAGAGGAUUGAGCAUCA; value = 0.399 ratio
Sequence = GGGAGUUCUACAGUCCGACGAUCUCCAUGCCACUGUCACCAAAAGCAGUCAGCUACGUUUCACAAUUUCUUUAAUAGCACUUUUAGUGUUUCCUCUUCCCUCCCCUUCCCAUUGCUUAGAUGAUAAAAGGUCCUGAGUUUUCCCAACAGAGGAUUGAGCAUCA; value = 1.5 ratio
Sequence = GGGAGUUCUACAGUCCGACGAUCGCAAUGAAAAAGCAGCCUUUCUCCCAGCCCCCCUUUCACUAGGAGAUACAAACGUUACCAUAGAAGAGCAAUUAAACUCAAUAAAUUUAUCUUUUCAGGAUGAUCCAGACUCCAGCACCACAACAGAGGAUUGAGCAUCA; value = 1.24 ratio
Sequence = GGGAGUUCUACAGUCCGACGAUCCAGUGUUUGAAGGAGAGAUCCCUGUUAUUUCUAAUAUUUGUUCUUUUUAUUAUAUUCCAGUCCAAUUUUUGAUGGAACUGGUAUAUUGGCAUUUCUCACCUAAGGAGUAACAGUUCUCUUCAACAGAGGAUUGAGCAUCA; value = 0.319 ratio
Sequence = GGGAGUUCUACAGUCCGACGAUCCAAUUCAAUGCUGGAGGGUUCAGAACUCAAAAAGGUCCGGUCCAACUCUAGAAUUUACCAUAGAUAUUUUUUACUGGACGCCGACAUGCAGAGCCUGAGGUGGGAGCCGUCCAAGAAAGACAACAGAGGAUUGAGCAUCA; value = 1.07 ratio
Sequence = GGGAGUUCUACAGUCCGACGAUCAAAUUCCCCCAUUGUCGCUGAGAACCACCAAAUCUGACUUUUACAUUUGGUCUCAGAAUUUAGUUUCCUGCCCUGUUGGUUUUUUUUUUUUUUUUUAAAAAAAAAAAACAGUUUUCAAAACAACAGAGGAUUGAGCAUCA; value = 0.338 ratio
Sequence = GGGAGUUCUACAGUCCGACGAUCGGGACGCUUUGAUGUAAAAAUUGAAGUUAAAAGCUGAUCACAAGCACAGAUCUUUCCCACUAGCCAUUUAAAAUGUUAAAAAAAAAAAAAAAAGAUAAACCUACUAGUCUUGAACAAACUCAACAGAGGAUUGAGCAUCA; value = 3.21 ratio

Sample 4 — method: RNA Bind-n-Seq; molecule type: RNA; medium: in vitro; concentration: 365 nM; reference: no-protein control; direction: higher = stronger binding; measurement: RBNS enrichment (R)
Target: RNA binding protein fox-1 homolog 2, RRM domain, GST-SBP tag (RBFOX2, Homo sapiens, UniProt O43251-10, residues 100-194)
Setting: natural RNA segment, single round, ends assumed
Sequence = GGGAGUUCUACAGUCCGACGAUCUCAGAAAUAGCCUCAGAAACUGAGGGUUUCAUAGUUGGAAGGAAGAAAUGGUCAUAAACACAAAUCAAAAUAUAGUAUUAUAGAUCAUAGAACCAAGUCACGUAACCAGGUGGAAUUCUCGGGUGCCAA; value = 0.364
Sequence = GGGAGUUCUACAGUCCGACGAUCCUGUCAUUUGCCAGUUGAUGGAGCCAAGUUGACCUUUGGUUCUGGUGCUUCACCCAGUUUGGAACUUUAAUCUGUAACCCAUGGAUCCACAGAUUUUCUUGGGAGCUUGAUGGAAUUCUCGGGUGCCAA; value = 0.391
Sequence = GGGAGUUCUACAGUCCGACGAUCUUUGAAAUCCAACUUGUUUUUAAAUUCCAUGUUGGUGCCAUAGAUGUAGUUUUUACAGCCUGAAAAUUAACUGCCAUGAACAUUCUUUGGUGAUGUAAGCAAGUAAAACCUGGAAUUCUCGGGUGCCAA; value = 0.724
Sequence = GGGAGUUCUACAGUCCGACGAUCCAGGCAGUUUAGUCCAUAGUAGUACUAUUUUGAUGAUAUUUUCCAUUAACAAAAUGUAAUUUCAGAUUAUUCGUUUAUAGGCUUUAUAAUUUUAUGGUUUUUUUUUAAAAUGGAAUUCUCGGGUGCCAA; value = 0.957
Sequence = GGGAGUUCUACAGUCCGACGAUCGUCUGGGAUCCAGGGCAAUGUGAAUUUUCUUUUUAUUUGGGAGAUUGUUCACGGAAAACAGAUCUUCUUCUCUCUUGUCCACCUAUUAAUUGUUUACAAUAUUUGUACAUUGGAAUUCUCGGGUGCCAA; value = 0.403
Sequence = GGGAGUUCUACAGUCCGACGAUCCCGGCUCUGCUUCCCCAGGAUCUUUGGGUGGUGCUAUCUCCUGCCUCUUGGAGCUCCUGGCGCUCCCCACCCGGUGUCCCCAGUGGAAGGGAUGGGGUGAAGCCCAGAGUUGGAAUUCUCGGGUGCCAA; value = 0.535
Sequence = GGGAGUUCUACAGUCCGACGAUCGGUGGUUGGGACUGGAGGUUGUAUAAGGUGUUCUUGGAAGGAAGGGGCAGGAGUUGGAAUUAGUUGGUCCCUACUGUCCCCCAUGAGGUUGUGAACCCCUCCCCCCAACUUGGAAUUCUCGGGUGCCAA; value = 1.32
Sequence = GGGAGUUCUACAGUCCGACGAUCCUGCUGAAGACAUUCGUAUUAUGUGUUAGAUGCUUUAAUGUUUGCAAAAUCUGUCUUGUGAAUGGACUGUCAGCUGUUAAACUGUUCCUGUUUUGAAGUGCUAUUACCUUUGGAAUUCUCGGGUGCCAA; value = 7.24

Excerpt of the above (sample 1):
Change = G13E; value = 0.0362
Change = A3V; value = -0.421
Change = R6A; value = -0.119
Change = P1T; value = 0.185
Change = G10N; value = -0.553
Change = G13H; value = -0.000362
Change = G13S; value = 0.401
Change = A3C; value = 0.248
Change = L12G; value = -0.301
